Measured values collected from several papers.
Parts stem from different laboratories: compare values within a part only. Positions count from the first letter of the parent shown.

Block 1
Target: RNA binding protein fox-1 homolog 2, RRM domain, GST-SBP tag (RBFOX2, Homo sapiens, UniProt O43251-10, residues 100-194)
Method: RNA Bind-n-Seq
Form: RNA
Sample: in vitro
Tested at: 365 nM
Setting: natural RNA segment, single round, ends assumed
Baseline: no-protein control
Reading: higher = stronger binding
`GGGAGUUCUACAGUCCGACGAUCUUUGCUACCGAAGUUGGCUCAAGAAUUUGUUUUUAGUGUUAUUUACCAAGAUUAGGACGUCAGUGGCUUAAAUUCUUUGAAUUCUUUUCAAGGACUGCAAGAUUAUUUGAUGGAAUUCUCGGGUGCCAA` — result for “RBNS enrichment (R)”: 0.997.
`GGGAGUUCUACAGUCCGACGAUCGCCUGGGAUUAUUUUUUUAAUUUUAAGUUUGCAUGAGAUAGCCUAAUAAAUGGAGGUGGGGCCAGGCAUGGUGGCUCACACGUGUAAUCCCAACACUUUGGGAGGCUGAGUGGAAUUCUCGGGUGCCAA` — result for “RBNS enrichment (R)”: 31.2.
Under “RBNS enrichment (R)”, `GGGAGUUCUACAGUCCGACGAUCCUCUGCGCUGAAGGUGCUGGGGUCAGGUGAAGGGAGCAGUGACAGGACACAGCACAGGUGCUGCUGGCUCUGGGGACGAGAUGGAGGUGCUGGAGGUAGUGUGUGGGGAGUGGAAUUCUCGGGUGCCAA` is recorded as 1.03.
For `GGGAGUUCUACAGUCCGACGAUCUAUUAUUUCUCUUUGCUUUCUCAAUGUUAAUUUAUUGCAUGGUUUAUUCUUUUUCUUUACAGCUGAAAUUGCUUUAAAUGAUGGUUAAAAUUACAAAUUAAAUUGUUAAUUGGAAUUCUCGGGUGCCAA`, “RBNS enrichment (R)” read 2.7.
`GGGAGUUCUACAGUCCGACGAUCUCACGUCUUACUCUGAGGUGUGUGACAUCUUUAGUGUGUGAGAUUUGGAUUCCUAACCUUAAGUGAGCUGUAAACAAUGUGAAUGGAGCUCUGGCCAGUCACCUUUAACCUGGAAUUCUCGGGUGCCAA`: “RBNS enrichment (R)” 0.455.
For `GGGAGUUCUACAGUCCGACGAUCCUUUGACCUCUCCCACUCUCCAAAUGUAAUCUGGACCUCAUUGCUUUCAAGGUCAGCUUCCCCAUAGCUCAGGUAUCCUUUGCUCUCCUGUAUCUUCAUUUACUAUUAGUUGGAAUUCUCGGGUGCCAA`, “RBNS enrichment (R)” read 0.927.

Block 2
Target: Interferon regulatory factor 7, full length, phosphomimetic (IRF7, Homo sapiens, UniProt Q92985, residues 1-503, S101K/S471D/S472D/S475D/S476D/S477D/S483D/S484D/S487D)
Sequence of UniProt Q92985 (whole entry, unmodified, looked up): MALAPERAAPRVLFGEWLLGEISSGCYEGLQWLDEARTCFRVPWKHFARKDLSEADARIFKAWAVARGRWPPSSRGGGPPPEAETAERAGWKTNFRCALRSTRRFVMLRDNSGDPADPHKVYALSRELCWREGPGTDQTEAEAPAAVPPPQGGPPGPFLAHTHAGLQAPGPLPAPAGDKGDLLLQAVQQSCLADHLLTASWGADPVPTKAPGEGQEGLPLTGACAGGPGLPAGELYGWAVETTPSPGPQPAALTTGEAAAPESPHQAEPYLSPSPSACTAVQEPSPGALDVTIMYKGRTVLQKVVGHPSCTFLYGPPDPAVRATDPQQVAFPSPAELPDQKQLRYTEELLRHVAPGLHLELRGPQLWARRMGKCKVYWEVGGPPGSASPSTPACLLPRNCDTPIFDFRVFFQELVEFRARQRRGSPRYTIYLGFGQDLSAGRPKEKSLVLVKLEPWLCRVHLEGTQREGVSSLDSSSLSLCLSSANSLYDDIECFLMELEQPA
Method: protein-binding microarray
Form: double-stranded DNA, one strand shown
Sample: in vitro
Tested at: 250 nM
Setting: 60-bp whole probe
With: salmon DNA 0.4 mg/ml
Baseline: random background probes
Reading: higher = stronger binding
Constant ends, left off below: GCCTAGCAC … GTCTTGATTCGCTTGACGCTGCTG
`TTAGGTATCCTTATCCGTTAGTGCTAG` has a log fluorescence of 0.304 z-score.
For `TCACATATAATTTTGTCACTGTGCTAG`, the log fluorescence was 0.382 z-score.
With `TTAGAACTGAGACCGGATTAGTGCTAG` the log fluorescence was 0.299 z-score.
`TTCGATTTCGGGTTTCGATTAGTGCTA` has a log fluorescence of 8.21 z-score.
The log fluorescence of `AGACCTTCACCTCTCTGTCCGTGCTAG` is reported as 0.0439 z-score.
`TCACTCTTCTTTTTTTTACTGTGCTAG` gave a log fluorescence of 0.877 z-score.
The log fluorescence of `GACGGTTTCGGATTGGGGACGTGCTAG` is reported as 11.7 z-score.
`GACGGTATCGGTGTCGGGACGTGCTAG` has a log fluorescence of -0.291 z-score.
The log fluorescence of `GACGGTTTCTTTTCCCTGACGTGCTAG` is reported as 4.57 z-score.
With `GACGGTATCGGTATCGTGACGTGCTAG` the log fluorescence was 1.4 z-score.
With `TTAGGACTGCGTATCGGTTAGTGCTAG` the log fluorescence was 0.00959 z-score.
`TTAGGTCTCGGTCTCGGTTAGTGCTAG` gave a log fluorescence of 2.38 z-score.
`GACGGTATCGGGTTGCGGGACGTGCTA` has a log fluorescence of 2.23 z-score.
`GACGATTTCATACTGGAGACGTGCTAG` gave a log fluorescence of 0.114 z-score.
`TTAGGTTCCCTTTTCATTTAGTGCTAG` gave a log fluorescence of 4.23 z-score.

Block 3
Target: CCNB2, cyclin fold, Cln2 fusion (human)
Method: yeast growth competition, sequencing
Sample: yeast
Setting: weak parent motif
Baseline: not given
Reading: higher = stronger binding
Parent: RB1 docking peptide (human); PKPLKKLRFDIEG
For `K6S`, “normalised enrichment score” read 0.211.
Under “normalised enrichment score”, `I11E` is recorded as 0.366.
For `K6V`, “normalised enrichment score” read 0.585.
For `R8K`, “normalised enrichment score” read 0.192.
Under “normalised enrichment score”, `F9D` is recorded as 0.248.
Under “normalised enrichment score”, `P1L` is recorded as -0.0791.
`E12P` — result for “normalised enrichment score”: 0.14.
`G13N`: “normalised enrichment score” 0.0804.
Under “normalised enrichment score”, `P3C` is recorded as 1.59.
`L4G` — result for “normalised enrichment score”: 0.683.
`I11F`: “normalised enrichment score” 0.326.

Block 4
Target: Histone acetyltransferase KAT6A, both winged helices, GST fusion (KAT6A, Homo sapiens, UniProt Q92794, residues 1-181)
Method: protein binding microarray
Form: double-stranded DNA, one strand shown
Sample: in vitro
Tested at: not given
Setting: 8-mer, flanks averaged, mean of 2 arrays, mostly near background
Baseline: not given
Reading: higher = stronger binding
Residues (chain): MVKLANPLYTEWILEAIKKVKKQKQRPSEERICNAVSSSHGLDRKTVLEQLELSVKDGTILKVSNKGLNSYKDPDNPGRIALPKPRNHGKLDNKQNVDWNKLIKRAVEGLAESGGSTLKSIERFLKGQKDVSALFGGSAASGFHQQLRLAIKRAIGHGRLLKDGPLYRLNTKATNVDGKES
For `CAAGGAGG`, the E-score was -0.131.
The E-score of `TCTCGTAA` is reported as 0.00402.
`GCATCCAC` gave an E-score of 0.088.
`CGTATAAC` has an E-score of 0.22.
`AGGCGGAT` has an E-score of 0.111.
With `GTTACGGA` the E-score was 0.227.
The E-score of `ATCTGCAG` is reported as -0.0953.
`AAAAGCCC` has an E-score of -0.131.
`CCGTTAAC` has an E-score of 0.227.
The E-score of `AGTAATGA` is reported as -0.124.
`AACCCTTG` gave an E-score of 0.0252.
`TCGTCAGA` has an E-score of -0.0803.
With `ATACCGCG` the E-score was 0.346.
With `AATTAGCA` the E-score was -0.0154.
With `GAAGTGTC` the E-score was -0.118.
With `TAAGCTGA` the E-score was -0.0394.
`AACATCTT` has an E-score of -0.0666.
With `AATTTTAG` the E-score was -0.0812.
`GAATATCA` gave an E-score of -0.021.
The E-score of `ACTGTAAA` is reported as -0.0328.
For `ATGCCGAA`, the E-score was 0.182.
The E-score of `ATCGTTTC` is reported as -0.0581.
`TACCTGCA` has an E-score of 0.0504.
For `CGTTGGTA`, the E-score was 0.133.
`ACAACTGT` gave an E-score of -0.00231.

Block 5
Target: Sal-like protein 4, full length isoform A (SALL4, Homo sapiens, UniProt Q9UJQ4, residues 1-1053)
Sequence of UniProt Q9UJQ4 (whole entry, looked up): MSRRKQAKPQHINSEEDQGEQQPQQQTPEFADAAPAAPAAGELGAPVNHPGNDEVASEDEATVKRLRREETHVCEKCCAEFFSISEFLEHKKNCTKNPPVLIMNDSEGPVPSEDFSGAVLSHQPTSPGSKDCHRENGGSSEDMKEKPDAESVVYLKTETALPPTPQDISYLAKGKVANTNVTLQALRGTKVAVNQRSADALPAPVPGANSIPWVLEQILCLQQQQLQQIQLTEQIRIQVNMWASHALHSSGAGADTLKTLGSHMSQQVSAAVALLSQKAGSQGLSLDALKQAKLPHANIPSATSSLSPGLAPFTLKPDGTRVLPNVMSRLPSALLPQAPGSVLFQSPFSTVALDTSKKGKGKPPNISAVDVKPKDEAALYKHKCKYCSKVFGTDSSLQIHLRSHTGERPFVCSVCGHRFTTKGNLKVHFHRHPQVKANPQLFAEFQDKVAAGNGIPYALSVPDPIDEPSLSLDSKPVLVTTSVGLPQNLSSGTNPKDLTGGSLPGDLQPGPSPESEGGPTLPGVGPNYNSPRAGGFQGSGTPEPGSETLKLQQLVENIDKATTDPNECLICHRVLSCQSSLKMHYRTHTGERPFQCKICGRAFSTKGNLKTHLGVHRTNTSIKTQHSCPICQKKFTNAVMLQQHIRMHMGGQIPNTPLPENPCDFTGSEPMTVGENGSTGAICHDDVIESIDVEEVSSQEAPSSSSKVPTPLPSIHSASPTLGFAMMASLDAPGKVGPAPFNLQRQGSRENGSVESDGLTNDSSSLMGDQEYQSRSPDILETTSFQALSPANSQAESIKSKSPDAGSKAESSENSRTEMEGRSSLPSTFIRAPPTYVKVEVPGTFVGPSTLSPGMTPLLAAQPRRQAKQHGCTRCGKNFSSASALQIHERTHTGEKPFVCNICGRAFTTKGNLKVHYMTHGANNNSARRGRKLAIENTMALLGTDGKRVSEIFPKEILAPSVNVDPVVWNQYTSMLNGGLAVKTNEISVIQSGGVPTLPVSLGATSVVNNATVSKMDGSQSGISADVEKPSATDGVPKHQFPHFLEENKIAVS
Method: universal PBM
Form: double-stranded DNA, one strand shown
Sample: in vitro
Tested at: 600 nM
Setting: 8-mer, flanks averaged, mean of replicates
Reading: higher = stronger binding
With `CATGTCGG` the E-score was -0.144.
For `AAACCTAC`, the E-score was -0.0313.
The E-score of `CCACCTGC` is reported as -0.287.
With `ACATCGGA` the E-score was -0.00862.
The E-score of `AAGGATCG` is reported as 0.0769.
With `CACACCGG` the E-score was -0.421.
For `ATACACCG`, the E-score was -0.0497.
With `CCGTCCGC` the E-score was -0.31.
For `AATTCGGC`, the E-score was -0.0981.
With `CAGCCGCC` the E-score was -0.418.
The E-score of `AGAGATTC` is reported as 0.0962.
The E-score of `GCAGGCTA` is reported as -0.282.
The E-score of `AACAGTTA` is reported as 0.2.
`ACAGACCG` has an E-score of -0.14.
With `CCCTACCC` the E-score was -0.192.
`TGGGTGAA` gave an E-score of 0.256.
For `AGTTTTTG`, the E-score was 0.279.

For quick reference, copied from above (block 4):
With `ATACCGCG` the E-score was 0.346.
`TACCTGCA` has an E-score of 0.0504.
The E-score of `ATCGTTTC` is reported as -0.0581.
With `TAAGCTGA` the E-score was -0.0394.
`GAATATCA` gave an E-score of -0.021.
For `CAAGGAGG`, the E-score was -0.131.
The E-score of `ATCTGCAG` is reported as -0.0953.
For `CGTTGGTA`, the E-score was 0.133.
With `AATTTTAG` the E-score was -0.0812.
`ACAACTGT` gave an E-score of -0.00231.
